Measurements gathered from unrelated publications.
Compare with care: the assays were run in different laboratories. ± gives the spread as reported.

SMILES | assay | system | conditions | Cmax
Cn1cnc2c(F)c(Nc3ccc(Br)cc3Cl)c(C(=O)NOCCO)cc21 | – | ESRD on hemodialysis, plasma | oral, 50 mg single dose, dosed after dialysis | 725 ng/mL
Nc1ncc(-c2cnn(CCO)c2)c2scc(-c3ccc(NC(=O)Nc4cccc(F)c4)cc3)c12 | – | patient, plasma | oral, 320 mg twice weekly, day 15, trial | 1760 ± 790 ng/mL
CN1C(=O)[C@@H](NC(=O)c2nnc(Cc3ccccc3)[nH]2)COc2ccccc21 | – | healthy men, plasma | oral, 20 mg once daily, day 14, geometric mean | 300 ng/mL
O=C(C1CCCCC1)N1CC(=O)N2CCc3ccccc3[C@H]2C1 | – | healthy men, plasma | oral, 40 mg/kg racemic praziquantel, geometric mean, together with: ritonavir 100 mg/day for 14 days | 2340 ng/mL
C[C@@H](N)c1cc(Cl)ccc1Cn1c(=S)[nH]c(=O)c2[nH]ccc21 | – | healthy Japanese volunteers, plasma | oral, 10 mg once daily, day 1, geometric mean | 43.8 nM
COc1cc(OC)c(/C=C/S(=O)(=O)Cc2ccc(OC)c(NCC(=O)O)c2)c(OC)c1 | – | cancer patients, phase I, plasma | oral, 140 mg twice daily, day 21 cycle 1 | 430 ± 260 ng/mL
COc1cccc(N2CCN(C3=Nc4c(F)cccc4[C@H](CC(=O)O)N3c3cc(C(F)(F)F)ccc3OC)CC2)c1 | UHPLC-MS/MS | healthy women, plasma | intravenous infusion, 120 mg single dose, 30 min infusion, HPβCD formulation | 7440 ± 1350 ng/mL
CCCC[C@H](NC(C)=O)C(=O)N[C@H]1CCC(=O)NC[C@@H](C(=O)N[C@@H](Cc2c[nH]c3ccccc23)C(N)=O)NC(=O)[C@H](CCCNC(=N)N)NC(=O)[C@@H](Cc2ccccc2)NC(=O)[C@H](Cc2c[nH]cn2)NC1=O | – | healthy volunteers, plasma | subcutaneous, 1.0 mg once daily, day 7, steady state geometric mean | 20.1 ng/mL
NC(=O)c1cnc2[nH]ccc2c1N[C@@H]1[C@@H]2CC3C[C@H]1C[C@@](O)(C3)C2 | – | healthy Japanese men, plasma | oral, 200 mg, single dose fasted | 649 ng/mL
CCOc1ccc2cc(-c3nn(CC4CCN(C)CC4)c4ncnc(N)c34)ccc2c1 | LC-MS/MS | Neospora caninum-infected pregnant sheep, plasma | oral, 100 mg/kg, after dose 5 | 3100 ± 1000 nM
COc1ccc2c3c1O[C@H]1C[C@@H](OC(=O)c4ccccc4)C=C[C@@]31CCN(C)C2 | – | healthy young men, plasma | intranasal, 11 mg, single dose | 19.4 ng/mL
Cc1cc(Nc2cc3ncccc3c(N[C@@H]3C[C@H]4CC[C@@H](C3)N4CCC#N)n2)n[nH]1 | – | pregnant rabbit, maternal plasma | oral, 30 mg/kg/day, gestation day 7 | 40.3 ng/mL
C[C@H]1Oc2cc(cnc2N)-c2c(nn(C)c2C#N)CN(C)C(=O)c2ccc(F)cc21 | – | healthy adults | oral tablet, 100 mg single dose, high-fat meal, adjusted geometric mean | 484 ng/mL
CC(=O)Nc1ccc(OS(=O)(=O)O)cc1 | – | healthy volunteers, plasma | oral, 650 mg acetaminophen, day 6, together with: favipiravir 800 mg, extended | 2400 ng/mL
CC(C)=CCC[C@](C)(O[C@@H]1O[C@H](CO)[C@@H](O)[C@H](O)[C@H]1O)[C@H]1CC[C@]2(C)[C@@H]1[C@H](O)C[C@@H]1[C@@]3(C)CC[C@H](O[C@@H]4O[C@H](CO)[C@@H](O)[C@H](O)[C@H]4O[C@@H]4O[C@H](CO)[C@@H](O)[C@H](O)[C@H]4O)C(C)(C)[C@@H]3CC[C@]12C | LC-MS/MS | healthy male volunteers, serum | oral, 3 g red ginseng | 1.53 ± 2.18 ng/mL
Cc1nc(-c2ccc(OCC(C)C)c(C#N)c2)sc1C(=O)O | – | healthy men, plasma | oral, 40 mg once daily, day 14, geometric mean, together with: verinurad 10 mg | 619 ng/mL
CN1CCN(c2ccc3nc(-c4c(N)c5c(F)cccc5[nH]c4=O)[nH]c3c2)CC1 | – | patients, plasma | oral, 300 mg, day 1, median concurrent dosing, together with: gemcitabine and capecitabine | 181 ng/mL
Nc1nc(NC2CC2)c2ncn([C@H]3C=C[C@@H](CO)C3)c2n1 | – | HIV-infected children and adolescents, Tanner stage 3-5, plasma | oral, 8 mg/kg | 3400 ng/mL
CNC(=O)c1cc(Oc2ccc(NC(=O)Nc3ccc(Cl)c(C(F)(F)F)c3)c(F)c2)ccn1 | – | metastatic colorectal cancer patients, plasma | oral, dose not given, together with: esomeprazole 40 mg 3 h before | 4700 ng/mL
Cc1nc2cccc(N)c2c(=O)n1C1CCC(=O)NC1=O (stereo not shown) | – | healthy adults, plasma | oral, 3 mg, geometric mean, together with: fluvoxamine 50 mg twice daily | 75.3 ng/mL
O=c1c(-c2ccc(O)cc2)coc2cc(O)ccc12 | – | healthy volunteers, urine | oral, dose not given, pharmaceutical preparations | 228 ± 5.34 ng/mL
CCC(CC)O[C@@H]1C=C(C(=O)O)C[C@H](N)[C@H]1NC(C)=O | – | healthy Indian subjects, fed, plasma | oral, 75 mg oseltamivir phosphate, reference capsule formulation, Tamiflu | 249 ± 63 ng/mL
Cc1c(Cl)c(C)[n+]([O-])c(Cl)c1-c1noc(-c2cc(O)c(O)c([N+](=O)[O-])c2)n1 | – | Parkinson's disease patients, plasma | oral, 50 mg, day 14, steady state, once daily | 459 ± 252 ng/mL

SMILES | assay | system | conditions | Cmax
COc1cc2c(cc1Cc1cccc(Cl)c1F)c(=O)c(C(=O)O)cn2[C@H](CO)C(C)C | – | rhesus macaque, plasma | oral, 30 mg/kg, together with: FTC 20 mg/kg, TAF, cobicistat 30 mg/kg | 1100 ng/mL
CC(C)=CCC[C@](C)(O[C@@H]1O[C@H](CO)[C@@H](O)[C@H](O)[C@H]1O)[C@H]1CC[C@]2(C)[C@@H]1[C@H](O)C[C@@H]1[C@@]3(C)CC[C@H](O[C@@H]4O[C@H](CO)[C@@H](O)[C@H](O)[C@H]4O)C(C)(C)[C@@H]3CC[C@]12C | LC-MS/MS | healthy volunteers, serum | oral, 3 g fermented red ginseng | 2.79 ± 4.29 ng/mL
Cc1ccnc2c1NC(=O)c1cccnc1N2C1CC1 | – | olive baboon (Papio anubis), female, non-pregnant, serum | oral, 800 mg, tablet, single dose | 909 ± 657 ng/mL
CN1CC[C@H](c2c(O)cc(O)c3c(=O)cc(-c4ccccc4Cl)oc23)[C@H](O)C1 | – | patients with advanced solid tumours, plasma | intravenous infusion, 70 mg/m^2, 1 h infusion, cycle 1, together with: FOLFOX | 2230 ± 510 nM
Cc1ccc(NC(=O)c2ccc(CN3CCN(C)CC3)cc2)cc1Nc1nccc(-c2cncc(-c3oncc3C)c2)n1 | – | healthy volunteers, plasma | oral, 25.0 mg once daily, day 1, 7-day dosing, mean | 1040 ng/mL
CC[C@H](C)[C@@H]1NC(=O)[C@H](Cc2ccc(O)cc2)NC(=O)[C@@H](N)CSSC[C@@H](C(=O)N2CCC[C@H]2C(=O)N[C@@H](CC(C)C)C(=O)NCC(N)=O)NC(=O)[C@H](CC(N)=O)NC(=O)[C@H](CCC(N)=O)NC1=O | – | human, saliva | intranasal, 20 IU | 130 ng/mL
CCC[C@H](N[C@@H](C)C(=O)N1[C@H](C(=O)O)C[C@@H]2CCCC[C@@H]21)C(=O)O | – | healthy Chinese volunteers, whole blood | oral, 4 mg perindopril tert-butylamine with indapamide 1.25 mg, single dose, fasting | 3.26 ± 1.1 ng/mL
Cc1ccc(Sc2ccccc2N2CCNCC2)c(C)c1 | – | healthy women, plasma | oral, 5 mg once daily, fed, day 12 | 13.5 ng/mL
C[C@]12C=CC(=O)C=C1CC[C@@H]1[C@@H]2[C@@H](O)C[C@@]2(C)[C@H]1C[C@H]1O[C@@H](C3CCCCC3)O[C@]12C(=O)CO | – | children with asthma, serum | inhaled, 160 µg ciclesonide, day 7, geometric LS mean, per-protocol, no spacer | 0.123 ng/mL
O=C(Cc1cccc(OC(F)(F)F)c1)Nc1ccc(CCCCc2nnc(NC(=O)Cc3ccccn3)s2)nn1 | – | patients, plasma | oral, 600 mg twice daily, fed, steady state, cycle 1 day 15, mean | 1460 ng/mL
O=C1CCc2ccc(OCCCCN3CCN(c4cccc(Cl)c4Cl)CC3)cc2N1 | – | healthy Japanese men, CYP2D6 IM, plasma | oral, 3 mg aripiprazole single, together with: paroxetine 20 mg/day | 18.1 ± 3 ng/mL
CC(C)c1nc(CN(C)C(=O)N[C@H](C(=O)N[C@@H](Cc2ccccc2)C[C@H](O)[C@H](Cc2ccccc2)NC(=O)OCc2cncs2)C(C)C)cs1 | – | human, plasma | oral, 100 mg twice daily, day 14, together with: saquinavir 1000 mg twice daily | 1270 ng/mL
C=C(C)[C@@H]1CC[C@]2(NCCN3CCS(=O)(=O)CC3)CC[C@]3(C)[C@H](CC[C@@H]4[C@@]5(C)CC=C(C6=CC[C@@](CF)(C(=O)O)CC6)C(C)(C)[C@@H]5CC[C@]43C)[C@@H]12 | – | HIV-1-positive treatment-naive adults, plasma | oral, 140 mg single dose, day 1, with food | 920 ng/mL
Nc1nnc(CN[C@@H]2C[C@H]2c2ccc(OCc3ccccc3)cc2)o1 | – | healthy young adults | oral, 1.0 mg/day, day 1, multiple dose, mean | 6.83 ng/mL
C[C@@H](O)[C@H]1C(=O)N2C(C(=O)O)=C(S[C@@H]3CN[C@H](C(=O)N(C)C)C3)[C@H](C)[C@H]12 | – | pig (Danish Landrace), plasma, free concentration | iv infusion, 1000 mg over 10 min, together with: vancomycin co-administered | 67000 ng/mL
CC1=C2C[C@H]3[C@@H](CC[C@@H]4C[C@H](NS(C)(=O)=O)CC[C@@]43C)[C@@H]2CC[C@@]2(C1)O[C@@H]1C[C@H](C)CN[C@H]1[C@H]2C | – | patients, plasma | oral, 180 mg daily, day 22, cycle 1 | 644 ng/mL
N[C@@H](CC(=O)N1CCn2c(nnc2C(F)(F)F)C1)Cc1cc(F)c(F)cc1F | – | healthy Korean subjects, plasma | oral, 100 mg single dose, ABCB1 G2677T/A GA+GT | 468 ± 141 ng/mL
CN(C)C(=O)c1cc2cnc(Nc3ccc(N4CCNCC4)cn3)nc2n1C1CCCC1 | – | Japanese cancer patients, plasma | oral, 600 mg, steady state, with proton pump inhibitor, geometric mean | 2700 ng/mL
CC(C)(Sc1ccncc1-c1ccc(C#N)c2ccccc12)C(=O)O | – | non-Asian male subjects, plasma | oral, 10 mg, single dose, fasted, geometric least squares mean | 11 ng/mL
CO[C@H]1C[C@@H]2CC[C@@H](C)[C@@](O)(O2)C(=O)C(=O)N2CCCC[C@H]2C(=O)O[C@H]([C@H](C)C[C@@H]2CC[C@@H](OP(C)(C)=O)[C@H](OC)C2)CC(=O)[C@H](C)/C=C(\C)[C@@H](O)[C@@H](OC)C(=O)[C@H](C)C[C@H](C)/C=C/C=C/C=C/1C | HPLC-MS/MS | Japanese patients, whole blood | oral, 20 mg, day 26, cycle 1, geometric mean | 155 ng/mL
Cc1nc(-c2ccc(OCC(C)C)c(C#N)c2)sc1C(=O)O | – | healthy Chinese adult volunteers, plasma | oral, 20 mg single dose, fed | 856 ± 254 ng/mL
CS(=O)(=O)n1cc2c(n1)CN([C@H]1CO[C@H](c3cc(F)ccc3F)[C@@H](N)C1)C2 | – | healthy Japanese men, plasma | oral, 50 mg once weekly, day 15 | 1310 nM
CCOc1ccc(Cc2cc([C@@H]3S[C@H](CO)[C@@H](O)[C@H](O)[C@H]3O)c(OC)cc2C)cc1 | – | Japanese type 2 diabetes patients, plasma | oral, 5 mg single dose, eGFR below 30 mL/min/1.73 m^2 | 195 ± 63.1 ng/mL

Some of these lines once more:
SMILES | assay | system | conditions | Cmax
Cc1nc(-c2ccc(OCC(C)C)c(C#N)c2)sc1C(=O)O | – | healthy men, plasma | oral, 40 mg once daily, day 14, geometric mean, together with: verinurad 10 mg | 619 ng/mL
CC(=O)Nc1ccc(OS(=O)(=O)O)cc1 | – | healthy volunteers, plasma | oral, 650 mg acetaminophen, day 6, together with: favipiravir 800 mg, extended | 2400 ng/mL
CCOc1ccc(Cc2cc([C@@H]3S[C@H](CO)[C@@H](O)[C@H](O)[C@H]3O)c(OC)cc2C)cc1 | – | Japanese type 2 diabetes patients, plasma | oral, 5 mg single dose, eGFR below 30 mL/min/1.73 m^2 | 195 ± 63.1 ng/mL
